Experimental data from different studies.
Compare with care: the assays were run in different laboratories. “And” joins repeats or separate records; there may be more than shown. ± gives the spread as reported.

Compound	tested on	assay	test system	conditions	how to read	quantity	value
CC(=O)O[C@H]1CC[C@@]2(C)[C@H](CC[C@@H]3[C@@H]2CC[C@]2(C)[C@@H](C4=CC(=O)OC4)[C@@H](OC(C)=O)C[C@]32O)C1	iPSC-derived cardiomyocytes	concentration-response fit	–	concentration not given	relative to: vehicle	fitted bottom MyBP-C level	18.6%
CC(c1ccccc1)(c1ccc(O)cc1)c1ccc(O)cc1	HepG2 spheroids	Hoechst flow cytometry	–	1 µM, 96 h	–	G1 phase cells	69.7 ± 7.18%
CN1CCN(C2(CNC3CCN(c4cccc(-c5cc6cc(F)ccc6[nH]5)c4)CC3)CCC2)CC1	SR	–	–	–	–	GI50	0.19 µM
C[C@@H]1O[C@@H](O[C@H]2C[C@@H](O)[C@]3(CO)[C@H]4[C@H](O)C[C@]5(C)[C@@H](C6=CC(=O)OC6)CC[C@]5(O)[C@@H]4CC[C@]3(O)C2)[C@H](O)[C@H](O)[C@H]1O	iPSC-derived cardiomyocytes	concentration-response curve, refers to: MyBP-C/MYH ratio	–	24 h	–	EC50	0.8 µM
Oc1ccc(C2(c3ccc(O)cc3)c3ccccc3-c3ccccc32)cc1	HepG2 spheroids	cell proliferation, flow cytometry, refers to: Ki67	–	10 µM, 96 h	relative to: solvent control	inhibition	20.9%
OCCN1CCN(CC/C=C2/c3ccccc3Sc3ccc(C(F)(F)F)cc32)CC1	Plasmodium falciparum	–	3D7	–	–	IC50	2.51 µM
COc1ccc2c(c1)[nH]c1c(C)nccc12	DU-145	bisulfite pyrosequencing, refers to: RASSF1A promoter CpG site 22	–	10 µM, 16 h	–	DNA methylation	92.4%
Cn1cncc1C1=CN(c2ncnc3[nH]cnc23)CCS1	SK-OV-3	–	–	ovarian cancer	–	CC50	> 200 µM
N.N.[Cl][Pt][Cl]	NCI-H82	PI flow cytometry	–	10 µM, 24 h	–	cells in G1 phase	55%
COc1cc(CCC[P+](c2ccccc2)(c2ccccc2)c2ccccc2)c(OC)c2c1OCO2.[I-]	A498	SRB	–	–	–	LC50	-4.78 log M
Cn1nccc1Nc1nccc(-c2cc3c(s2)C(C)(C)N(CCN2CCOCC2)C3=O)n1	HCT116	IncuCyte	–	concentration not given, 0 (unit not given)	–	PI-positive cells	2.42 count and 3.75 count and 2.92 count
Oc1cc(Cl)ccc1Oc1ccc(Cl)cc1Cl	HepG2	extracellular flux, refers to: oxygen consumption rate	–	1 h, distribution mode 1	–	point of departure	1.38 µM
C=C[C@@]12CN(C)[C@H]3C[C@]14C(=Nc1ccccc14)[C@@H]1C[C@@H]2[C@@H]3CO1	Vero	CCK-8	–	up to 100 µM, 24 h	–	viability	no effect
CCN(CC)c1ccc(C=NNC(=O)CSc2nc3ccccc3c(=O)n2Cc2ccc(S(N)(=O)=O)cc2)c(O)c1	NCI-H226	NCI five-dose screen	–	–	–	CC50	> 100 µM
CN(C)CC[C@@H](c1ccc(Br)cc1)c1ccccn1	Plasmodium falciparum	–	Dd2	–	–	IC50	6.31 µM
COc1c(C)c2c(c(O)c1C/C=C(\C)CCC(=O)O)C(=O)OC2	Placenta cancer cell lines	cell proliferation	–	–	–	IC50	0.24 µM
C/C=C(/C)C(=O)O[C@H]1C(C)=C2[C@H]([C@@H]1OC(=O)CCCCCCC)[C@@](C)(OC(C)=O)C[C@H](OC(=O)CCC)[C@@]1(O)[C@H]2OC(=O)[C@@]1(C)O	HEK-293T	RNA-seq GSEA, refers to: Hallmark E2F targets	–	500 nM, 6 h	direction not given	normalized enrichment score	-0.952
Nc1ncc(-c2nc(N3CCOCC3)nc(N3CCOCC3)n2)c(C(F)F)n1	A-172	cell growth	–	72 h	–	GI50	0.355 µM

Compound	tested on	assay	test system	conditions	how to read	quantity	value
COc1cccc2c1C(=O)c1c(O)c3c(c(O)c1C2=O)C[C@@](O)(C(=O)CO)C[C@@H]3O[C@H]1C[C@H](N)[C@H](O)[C@H](C)O1	SK-OV-3	sulforhodamine B	–	10 µg/mL, 48 h	negative means cell kill	growth percent	-25.5%
Cn1nccc1Nc1nccc(-c2ccn([C@H](CO)c3ccc(Cl)c(F)c3)c(=O)c2)n1	HCT116	IncuCyte	–	concentration not given, 44 (unit not given)	–	PI-positive cells	16.5 count and 11.9 count and 18.7 count
C/C=C(/C)C(=O)O[C@H]1C(C)=C2C([C@@H]1OC(=O)CCCCCCC)[C@@](C)(OC(C)=O)C[C@H](OC(=O)CCC)[C@@]1(O)[C@H]2OC(=O)[C@@]1(C)O (stereo partly drawn)	C127 LDR GFP reporter cells	silenced GFP reporter induction, activator, high-content imaging	–	retest, two-run mean	–	efficacy	96%
COc1ccc([C@H]2c3[nH]c4ccc(Cl)cc4c3CCN2C(=O)Oc2ccc(Cl)cc2)cc1	human dermal fibroblasts with PBMC	cytokine secretion, refers to: sIL-10	–	0.1 µM, 48 h	–	inhibition	81%
CO[C@H]1/C=C\C=C(/C)C(=O)NC2=CC(=O)C(NCCN(C)C)=C(C[C@@H](C)C[C@H](OC)[C@H](O)[C@@H](C)/C=C(\C)[C@@H]1OC(N)=O)C2=O	iPSC-derived cardiomyocytes	initial hit retest	–	concentration not given, 24 h, plate-normalised	–	MyBP-C protein level	32%
COC(=O)C1CCN(C(=O)c2ccc(NCc3cnc4nc(N)nc(N)c4n3)cc2)CC1	786-O	high-content imaging, refers to: MitoTracker Red uptake	–	10 µM	–	mitochondrial toxicity	-6.11 ± 3.2%
O=S(=O)(c1ccc(O)cc1)c1ccc(O)cc1	HepG2 spheroids	Hoechst flow cytometry	–	1 µM, 96 h	–	G1 phase cells	75.1 ± 5.38%
Cc1cnc2ccc3c(nc(N)n3C)c2n1	BALB/c 3T3	colony formation	–	10 µM	–	plating efficiency	45%
Cc1c(O)c(O)cc2c1CC=C1[C@@]2(C)CC[C@@]2(C)[C@@H]3C[C@](C)(C(=O)O)CC[C@]3(C)CC[C@]12C	iPSC-derived cardiomyocytes	concentration-response curve, refers to: MyBP-C protein level	–	24 h	–	EC50	5.9 µM
Cc1sc2c(c1C)C(c1ccc(Cl)cc1)=N[C@@H](CC(=O)OC(C)(C)C)c1nnc(C)n1-2	MM1.S	refers to: MYC	–	3 µM, 6 h	relative to: untreated	protein level decrease	~88%
O=c1cc(-c2ccccc2)oc2cc(O)ccc12	HaCaT keratinocytes	LC-MS	–	5 µM, 6 h, benzo[a]pyrene-induced, with: imiquimod 0.5 µM	–	imiquimod monohydroxylated metabolite formation	inhibited
CC(C)CN(C[C@@H](O)[C@H](Cc1ccccc1)NC(=O)O[C@H]1CO[C@H]2OCC[C@H]21)S(=O)(=O)c1ccc(N)cc1	ΔE-expressing cells	ΔE mislocalization, high-content imaging	–	–	–	EC50	inactive
COC(=O)/C(C)=C\C[C@@]12OC(C)(C)[C@@H]3C[C@@H](C=C4C(=O)c5c(O)c6c(c(CC=C(C)C)c5O[C@]431)O[C@](C)(CCC=C(C)C)C=C6)C2=O	iPSC-derived cardiomyocytes	concentration-response curve, refers to: MyBP-C protein level	–	24 h	–	EC50	7.7 µM
CC(C)N1CCC(NC2CCN(c3cccc(-c4cc5cc(F)ccc5[nH]4)c3)CC2)CC1	A498	–	–	–	–	CC50	5.78 µM
COc1c(CCC[P+](c2ccccc2)(c2ccccc2)c2ccccc2)cc2c(c1OC)OCO2.[I-]	IGROV-1	SRB	–	–	–	LC50	-4.09 log M
CC[C@H](C)[C@H](NC(=O)[C@H](CCC(=O)O)NC(=O)[C@H](CCCNC(=N)N)NC(=O)[C@H](CCCNC(=N)N)NC(=O)[C@H](CCCNC(=N)N)NC(=O)[C@H](CCC(N)=O)NC(=O)[C@H](CCCNC(=N)N)NC(=O)[C@H](CCCNC(=N)N)NC(=O)[C@H](CCCCN)NC(=O)[C@H](CCCCN)NC(=O)[C@H](CCCNC(=N)N)NC(=O)CNC(=O)[C@H](Cc1ccc(O)cc1)NC(C)=O)C(=O)N[C@@H](CC(=O)O)C(=O)N[C@@H](Cc1c[nH]cn1)C(=O)N[C@@H](CC(=O)O)C(N)=O	BV-2	immunoblot	–	70 µM, with: high glucose	–	RAGE protein level	no effect
Cc1nn(-c2nc3c(F)cc(F)cc3s2)c(O)c1C(c1ccc(C(F)(F)F)cc1)c1c(C)nn(-c2nc3c(F)cc(F)cc3s2)c1O	RAW-ISG	CCK-8	–	25 µM	–	viability	92.7% and 89.6% and 92% and 103%
Nc1ncnc2c1ncn2[C@@H]1O[C@@H]2COP(=O)(O)O[C@H]3[C@@H](O)[C@H](n4cnc5c(=O)[nH]cnc54)O[C@@H]3COP(=O)(O)O[C@H]2[C@H]1O	HFF-1	RNA sequencing Reactome analysis, refers to: Reactome R-HSA-5663220	–	with: West Nile virus infection	relative to: West Nile virus infected cells, upregulated pathway	pathway fold enrichment	3.61
